# Assay results collected from several papers.
# Each numbered part is a random draw from the data of one study; scales do not carry over between parts.

# Block 1 — method: RNA Bind-n-Seq; form: RNA; medium: in vitro; concentration: 365 nM; relative to: no-protein control; reading: higher = stronger binding
# Target: RNA binding protein fox-1 homolog 2, RRM domain, GST-SBP tag (RBFOX2, Homo sapiens, UniProt O43251-10, residues 100-194)
# Notes: natural RNA segment, single round, ends assumed
# Shared flanks, not repeated: GGGAGUUCUACAGUCCGACGAUC … UGGAAUUCUCGGGUGCCAA
# Target sequence (chain): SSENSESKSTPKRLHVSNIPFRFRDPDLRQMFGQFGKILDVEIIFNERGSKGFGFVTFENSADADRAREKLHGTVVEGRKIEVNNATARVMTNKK
Oligonucleotide,RBNS enrichment (R)
UGUCACCUUCUUGGACUUAUUCCCCACCUGAUACCUUAUAGAGAAAAGUGUGAAUUCAGGUGGAGAGUAGGCCCAGGCCCCAUGAGGCACCAGUGGAAGCACAGCUCCAA,0.202
AUUAAUCAGGUUUUUAUUCAAUCAUAUAAAUGUAUUCCUUUGUAAUCAUUUUUGUUUAACUGAGGAUAUCUAGUGUCUGCUUCAUAGGGUGCUUUGAAAUAUAAAAUGAA,0.822
AGUGUCCUUCAGGAAUGAAAGGAGGGGCAAAGGAGUCACCAGAGGUCCUGCAUUUCCAUCAGGGUUUCCACAGUCAUCAGGGCUUCUCUCUUGAGUUGCUGAUAGGAGAU,4.95
GAAGACAGCAAACUGGUAAGGUUCAUUCCUGGCUCGGUGCCAGGAACAUUUGUGUUUUGGAGCUCACUUUUAGUUUUGAAACGGCCUUUGCUCGUUAUAUUGUGAUCCAG,0.35
AUGGGCCACCUCUUCCUCCAAGCCCAGAUGCAGAGAUGGUCAUGGGCAGCUGGAGGGUAGGCUCAGAAAUGAAGGGAACCCCUCAGUGGGCUGCUGGACCCAUCUUUCCC,0.222
GGACUCUGCUCAGCCCUCUGUAUAUCACUGUCAGGGUGGGUACGGCUCAUUGGUUCUGAUUUGCCCACUAAGGGUACAUGUGCGCUUAGUACAUUUGUAAAUACUCAGUU,0.181
UCUAAGCUCCCUAGCUCAGGCCAAGAAAGAAAGCUGAGCUACUUUUAACUUUCUCUUCCUUAAAUACAAGUCAAUGAAGUGAAGGAGGGUAUGCAUACAUGCCCCUCACC,0.44
AGCCUGCAUACCCAGCCUACUCUUGGGCCCACUUGGACGCGCUGGCAGGAGGCCUGGGUCUCACCAGCAGGAGUGCGUGCAAGGUGGGAGGGUCGGUCCAUUACAGACCC,1.28

# Block 2 — method: universal PBM; form: double-stranded DNA, one strand shown; medium: in vitro; concentration: not given; reading: higher = stronger binding
# Target: Sal-like protein 4, full length isoform B (SALL4, Homo sapiens, UniProt Q9UJQ4-2, residues 1-616)
# Notes: 8-mer, flanks averaged, mean of replicates
Oligonucleotide,E-score
CACGCACA,0.0708
GTTAAGAA,0.0162
ACAATGAG,0.0898
CCAGCAGA,-0.0935
GCGCTACC,-0.213
GCAACGAC,-0.16
CAAGGCAG,-0.0818
ATACGCAT,0.159
TCGCGCGA,-0.141
CAACCCAA,0.0477
AATGACAG,0.168
CCACTCGC,-0.222
ATACAGCC,0.0257
AAAATCAA,0.262
AATGCTGC,0.0922
TACCGCCA,0.0031
CAGATTAA,0.194
AGTAAGAT,0.247
CGTAGAGC,-0.236
CAGCGTTA,-0.0731
GGGATCGA,-0.154
GAAGAGTA,0.0895
CATCTCCG,-0.038
GACCCACA,0.0137
CGCTGGAG,-0.252

# Block 3 — method: aptamer microarray, sandwich; form: DNA with 2'F-ANA; medium: in vitro; concentration: 200 nM; with: Cy3 exosite-II aptamer, 400 nM; reading: higher = stronger binding; oligonucleotide: GGTTGGTGTGGTTGG
# Target: Prothrombin, mature alpha-thrombin (F2, Homo sapiens, UniProt P00734)
# Notes: whole 15-mer aptamer, many near background
Modification,mean fluorescence intensity [a.u.]
2'F-ANA at 5 7 8 11,153
2'F-ANA at 3 4 11 12 13 14 15,371
2'F-ANA at 1 3 4 5 6 7 8 10 12 13 15,54.6
2'F-ANA at 2 5 7 9 11 12 15,111
2'F-ANA at 2 3 9 11 12 13,870
2'F-ANA at 1 5 7 10 11 12,47.9
2'F-ANA at 3 10 12 13 15,606
2'F-ANA at 1 3 7 9 10 11 12 13 14,60.6
2'F-ANA at 1 2 3 7 8 13,246
2'F-ANA at 1 3 7 8 9 12 13,498
2'F-ANA at 1 4 5 6 11 12 14 15,48.5
2'F-ANA at 1 3 4 5 10,52.3
2'F-ANA at 5 9 12 14 15,49.7
2'F-ANA at 1 2 4 7 8 11 13 14 15,56.2
2'F-ANA at 2 5 7 12 14,65.8
2'F-ANA at 2 5 7 9 11 12 14,49.3
2'F-ANA at 2 3 4 6 8 11 12 14,302
2'F-ANA at 2 3 5 6 9 10 12 14 15,51.4
2'F-ANA at 1 2 6 9 10 11 12 15,63.6
2'F-ANA at 2 5 7 8 9 10 12 13,48.8
2'F-ANA at 3 4 5 6 7 8 12 14,58

# Block 4 — method: protein-binding microarray; form: double-stranded DNA, one strand shown; medium: in vitro; concentration: 250 nM; notes: 60-bp whole probe; with: salmon DNA 0.4 mg/ml; relative to: random background probes; reading: higher = stronger binding; shared flanks, not repeated: GCCTAGCAC … GTCTTGATTCGCTTGACGCTGCTG
# Target: Interferon regulatory factor 5, full length, phosphomimetic (IRF5, Homo sapiens, UniProt Q13568-2, residues 1-514, K96S/S451D/S453D/S456D/S462D)
Oligonucleotide,log fluorescence [z-score]
GACGATATCGGTTTTCGAGACGTGCTA,5.57
TCATTTATGGTTTTTTTACTGTGCTAG,0.785
TTAGATCGCAGTTTCGATTAGTGCTAG,8.62
TTAGGTATCGCTTTCGGTTAGTGCTAG,10.4
CTTAGACTGTCCTGCTGGAGGTGCTAG,-0.306
GACGATATCAGTCTAGAGACGTGCTAG,1.29
GACAGTCTCCTTCTCCTGACGTGCTAG,0.00407
TTAGGCATCGACTTTCGGTTAGTGCTA,9.6
GACGAACGGAGTCTCGAGACGTGCTAG,-0.384
TTAGGTTTCGGTATCGGTGAGTGCTAG,10.5
TTAGATCTCAGACTGGATCAGTGCTAG,-0.316
TTAGCTTTCGGACTGGGTTAGTGCTAG,6.85
GACGATTTCAGACTGGAGACGTGCTAG,0.127
TCATCTTTCTACATAGAACTGTGCTAG,2.17
TCTCCTACAGGTTCTCTGAGAGTGCTA,-0.106
GAGAATTTCCACTTTGACTTGTGCTAG,0.78

# Some of these lines once more (block 3):
Modification,mean fluorescence intensity [a.u.]
2'F-ANA at 2 5 7 9 11 12 15,111
2'F-ANA at 2 3 9 11 12 13,870
2'F-ANA at 1 5 7 10 11 12,47.9
2'F-ANA at 3 10 12 13 15,606
2'F-ANA at 1 3 7 9 10 11 12 13 14,60.6
2'F-ANA at 1 2 3 7 8 13,246
2'F-ANA at 1 3 7 8 9 12 13,498
2'F-ANA at 1 4 5 6 11 12 14 15,48.5
2'F-ANA at 1 3 4 5 10,52.3
2'F-ANA at 5 9 12 14 15,49.7
2'F-ANA at 1 2 4 7 8 11 13 14 15,56.2
2'F-ANA at 2 5 7 12 14,65.8
